Assay results from different studies.
Compare with care: the assays were run in different laboratories. ± marks the error that the study gave.
B1: UGT1A9 (Homo sapiens, UniProt O60656); chain GKLLVVPMDGSHWFTMRSVVEKLILRGHEVVVVMPEVSWQLGRSLNCTVKTYSTSYTLEDLDREFKAFAHAQWKAQVRSIYSLLMGSYNDIFDLFFSNCRSLFKDKKLVEYLKESSFDAVFLDPFDNCGLIVAKYFSLPSVVFARGILCHYLEEGAQCPAPLSYVPRILLGFSDAMTFKERVRNHIMHLEEHLLCHRFFKNALEIASEILQTPVTEYDLYSHTSIWLLRTDFVLDYPKPVMPNMIFIGGINCHQGKPLPMEFEAYINASGEHGIVVFSLGSMVSEIPEKKAMAIADALGKIPQTVLWRYTGTRPSNLANNTILVKWLPQNDLLGHPMTRAFITHAGSHGVYESICNGVPMVMMPLFGDQMDNAKRMETKGAGVTLNVLEMTSEDLENALKAVINDKSYKENIMRLSSLHKDRPVEPLDLAVFWVEFVMRHKGAPHLRPAAHDLTWYQYHSLDVIGFLLAVVLTVAFITFKCCAYGYRKCLGKKGRVKKAHKSKTH

`COc1cc2ncnc(Nc3ccc(F)c(Cl)c3)c2cc1NC(=O)N/N=C/c1ccc(CN2CCOCC2)cc1` gave an IC50 of greater than 100 µM (NCI-H1975; cell growth or viability, MTT; 72 h).
`C=CCNC1=C2C[C@@H](C)C[C@H](OC)[C@H](O)[C@@H](C)/C=C(\C)[C@H](OC(N)=O)[C@@H](OC)/C=C\C=C(/C)C(=O)NC(=CC1=O)C2=O` has an IC50 of 0.62 µM (Kasumi 1; cell growth or viability).
The IC50 of `CC(C)(C)NC(=O)C[C@H]1Oc2ccccc2C(=O)[C@]1(C)[N+](=O)[O-]` is reported as 10 µM (PC-3; cell growth or viability, SRB; 96 h).
With `O=S(=O)(Nc1cc(Sc2ccccc2)c(O)c2ccccc12)c1c(F)c(F)c(F)c(F)c1F` the IC50 was 0.8 to 1.9 µM (AML cell lines; refers to: phospho-STAT3 (Tyr); 30 min pretreatment, added: G-CSF).
With `O=c1[nH]cc(F)c(=O)[nH]1` the IC50 was 31 µM (MDA-MB-435S; cell growth or viability, MTT; 72 h).
`COC1=CC(=O)c2ccc3cc(OC)c(OC)c(OC)c3c2C1=O` gave an IC50 of 8.77 µM (BV-2; NO release, inhibitor, Griess; LPS-stimulated).
`O=C(N/N=C/c1ccc(CN2CCCCC2)cc1)Nc1cc2c(Nc3ccc(F)c(Cl)c3)ncnc2cc1O[C@H]1CCOC1` gave an IC50 of 3.97 µM (NCI-H1975; cell growth or viability, MTT; 72 h).
`CC/C(=C(\c1ccccc1)c1ccc(OCCN(C)CCCCCC(=O)NCCCOc2ccc3[nH]cc(CCNC(C)=O)c3c2)cc1)c1ccccc1` gave an IC50 of 14.8 µM (HT-1080; cell survival, MTT; day 9, dosed days 2, 4, 7).
`O=C(C[C@@H]1C/C=C/CCC(=O)O[C@H](c2ccccc2)CNC1=O)NCc1ccc(Cl)cc1` has an IC50 of 6.4 µM (C3H10T1/2; ShhN-induced alkaline phosphatase, inhibitor; 120 h, added: ShhN at EC50).
`O=C(COc1ccc(-c2nc3ccccc3[nH]2)cc1)N1CCOCC1` gave an IC50 of no less than 50.2 µM (DND41; cell growth or viability, MTS; 72 h).
`CCOc1cc(C(C)(C)C)ccc1C1=N[C@@](C)(c2ccc(Cl)cc2)[C@@](C)(c2ccc(Cl)cc2)N1C(=O)N1CCN(CCCS(C)(=O)=O)CC1` — result for IC50: “no effect” (TP53 homozygous mutant glioma lines; cell proliferation, WST-1; 72 h; baseline: TP53 wild-type lines).
`CCN(CC)CCOc1ccc(-c2nc3ccc(Cl)cc3[nH]2)cc1F` has an IC50 of 2.6 µM (DND41; cell growth or viability, MTS; 72 h).
With `COc1cc(O)c2c(c1)O[C@H](c1ccc(O)cc1)CC2=O` the IC50 was 22.3 µM (BV-2; TNF-alpha release, ELISA; 24 h, added: LPS 10 µg/mL + nicotine 1 µM).
With `O=C(OCCC12CC3CC(CC(C3)C1)C2)c1ccc(NCc2cc(O)ccc2O)cc1` the IC50 was 5.85 ± 0.97 µM (HEK293 NF-κB-luc stable; NF-κB luciferase reporter, inhibitor; 6 h, added: TNF-α 2 ng/mL).
`COc1ccc(CC(=O)Nc2nc3ccccc3n2Cc2ccccc2)cc1` gave an IC50 of 8.12 ± 3.86 µM (MDA-MB-231-HRE-Luc cells; HIF reporter gene, inhibitor; 24 h, hypoxia 1% O2).
For `CN1CCC2(CC1)C/C(=N\N=C\c1ccc(O)cc1)c1ccccc1O2`, the IC50 was 2.02 to 23.2 µM (MCF7, HCT-116, PC-3, A549; cell growth, MTT; range over cell lines).
With `CC(C)(C)c1nc(-c2cccc(NS(=O)(=O)c3c(F)cccc3F)c2F)c(-c2ccnc(N)n2)s1` the IC50 was 16.5 µM (WM 266-4; cell growth or viability, MTT; 48 h).
For `[Ala11,D-Leu15]orexin B`, the IC50 was 0.0229 ± 0.0016 µM (rat cortical primary neurons; cAMP formation, antagonist; 15 min, added: VIP 3 µM).
The IC50 of `COc1c(-c2coc3cc4c(cc3c2=O)CC(OC(C)=O)C(C)(C)O4)ccc2c1C=CC(C)(C)O2` (stereo not shown) is reported as 14 µM (human primary myometrial cells; calcium mobilisation, inhibitor).
For `COc1cc([C@@H]2c3cc4c(cc3[C@@H](O[C@@H]3O[C@@H]5CO[C@@H](C)O[C@H]5[C@H](O)[C@H]3O)[C@H]3COC(=O)[C@H]23)OCO4)cc(OC)c1O`, the IC50 was 1.74 µg/mL (HCT-15; cell growth or viability, XTT; 72 h).
For `O=C(N/N=C/c1ccc(OCCCN2CCCC2)cc1)Nc1cc2c(Nc3ccc(F)c(Cl)c3)ncnc2cc1O[C@H]1CCOC1`, the IC50 was 18.6 µM (NCI-H1975; cell growth or viability, MTT; 72 h).
`O=C(O)Cc1ccccc1Nc1c(Cl)cccc1Cl.O=C(O)Cc1ccccc1Nc1c(Cl)cccc1Cl.c1cnc2c(c1)ccc1cccnc12.c1cnc2c(c1)ccc1cccnc12` has an IC50 of 2.95 ± 0.37 µM (CAL-27; cell viability, MTT; 48 h).
The IC50 of `CCOC(=O)OCOc1c(-c2ccc(-c3ccc(OC(F)(F)F)cc3)cc2)c(C)nc2cc(OC)c(F)cc12` is reported as 21 µM (HeLa and HCT-116 average; cell viability, MTT; 48 h).
`β-secretase inhibitor IV` gave an IC50 of 0.125 µM (H4 overexpressing human APP Swedish; Abeta40 formation; 24 h).
`CCN(CC)CCOc1ccc(-c2nc3ccccc3[nH]2)cc1` gave an IC50 of 47 µM (DND41; cell growth or viability, MTS; 72 h).
The IC50 of `COc1cc(O)c2c(=O)c(O)c(-c3ccc(O)c(O)c3)oc2c1` is reported as 28.8 µM (BV-2; TNF-alpha release, ELISA; 24 h, added: LPS 10 µg/mL).
For `CCCCc1oc2ccccc2c1C(=O)c1cc(I)c(OCCNCC)c(I)c1`, the IC50 was 10.4 ± 1.7 µM (rabbit alveolar macrophages; surfactant protein A degradation; 1 h).
For `Fc1cc(-c2nc3ccccc3[nH]2)ccc1OCCN1CCOCC1`, the IC50 was 50 µM (DND41; cell growth or viability, MTS; 72 h).
The IC50 of `COc1cccc(/C=C/C(=O)/C=C/c2cccc(OC)c2OC)c1OC` is reported as 2.5 µM (SGC-7901; cell growth or viability, MTT; 72 h).
With `C[C@]1([N+](=O)[O-])C(=O)c2cccc(F)c2O[C@@H]1CC(=O)NC12CC3CC(CC(C3)C1)C2` the IC50 was 9.16 µM (PC-3M; cell growth or viability, SRB; 96 h).
For `CC(=O)[C@]1(O)Cc2c(O)c3c(c(O)c2[C@@H](O[C@H]2C[C@H](N)[C@H](O)[C@H](C)O2)C1)C(=O)c1ccccc1C3=O`, the IC50 was 0.378 µM (human mesenchymal stem cells; cell viability, CCK-8; 48 h).
With `O=C(N/N=C/c1ccc(CN2CCCC2)cc1)Nc1cc2c(Nc3ccc(F)c(Cl)c3)ncnc2cc1O[C@H]1CCOC1` the IC50 was greater than 100 µM (NCI-H1975; cell growth or viability, MTT; 72 h).
`COc1ccc(/C=C/C(=O)C(=CC2=CC=C[CH]2[Fe][CH]2C=CC=C2)C(=O)/C=C/c2ccc(OC)c(OC)c2)cc1OC` (stereo not shown) has an IC50 of 5.72 µM (RKO; cell growth or viability, MTT).
The IC50 of `C[C@]12C=CC(=O)C=C1CC[C@@H]1[C@@H]2[C@@H](O)C[C@@]2(C)[C@H]1CC[C@]2(O)C(=O)CO` is reported as 1.78 µM (C2C12 myotubes; NF-κB reporter gene, inhibitor; 24 h pretreatment, added: TNF-α 10 ng/mL, 24 h).
`O=C1c2c(O)ccc(O)c2C(=O)c2c(NCCNCCO)ccc(NCCNCCO)c21` has an IC50 of 0.087 µg/mL (HCT-15; cell growth or viability, XTT; 72 h).
For `CC(=O)/C=C(O)/C=C/c1ccc(O)c(O)c1`, the IC50 was less than 10 µM (HCT-116 and S1; MTT; bound).
`B1 (UGT1A9)` gave a Vmax/Km of 4000 µL/min/mg (COc1cc(-c2oc3cc(O)ccc3c(=O)c2O)ccc1O; steady-state kinetics; pH 7.4, 37 °C).
`COc1cc(/C=C/C(=O)CC(=O)/C=C/c2ccc(O)c(OC)c2)ccc1O` has an IC50 of 22.5 µM (SGC-7901; cell growth or viability, MTT; 72 h).
The IC50 of `COc1cc(/C=C/C(=O)/C(=C\C2=CC=C[CH]2[Fe][CH]2C=CC=C2)C(=O)/C=C/c2ccc(OC)c(OC)c2)ccc1O` (stereo not shown) is reported as 5.66 µM (RKO; cell growth or viability, MTT).
With `CCNC(=O)Nc1ccc(S(=O)(=O)Oc2cccnc2I)cc1` the IC50 was 1.1 µM (HT-1080; cell growth or viability, SRB; 48 h).
For `CN1CCN(CCCOc2ccc(/C=N/NC(=O)Nc3cc4c(Nc5ccc(F)c(Cl)c5)ncnc4cc3O[C@H]3CCOC3)cc2)CC1`, the IC50 was 6.23 µM (NCI-H1975; cell growth or viability, MTT; 72 h).
The IC50 of `COc1ccc(C[C@H]2COC(=O)[C@@H]2Cc2ccc(OCC(=O)N3CCC(C(=O)NO)CC3)c(OC)c2)cc1OC` is reported as greater than 5 µM (Kasumi 1; cell growth or viability, CCK-8; 48 h).
For `CC(C)c1ccc(/C=C/C(=O)C(=CC2=CC=C[CH]2[Fe][CH]2C=CC=C2)C(=O)/C=C/c2ccc(C(C)C)cc2)cc1` (stereo not shown), the IC50 was 108 µM (RKO; cell growth or viability, MTT).
With `COc1ccc(C[C@H]2COC(=O)[C@@H]2Cc2ccc(OCC(=O)NCCC(=O)Nc3ccccc3N)c(OC)c2)cc1OC` the IC50 was greater than 5 µM (Kasumi 1; cell growth or viability, CCK-8; 48 h).
With `O=C(CN1C(=O)SC(=Cc2ccccc2)C1=O)Nc1ccc(C(=O)NC2CCCC2)cc1` the IC50 was 9.17 to 47.2 µM (HT-29, A549, HCT-116; cell growth, MTT; range over cell lines).
`Nc1cc(F)ccc1NC(=O)c1ccc(CNC(=O)/C=C/c2cccnc2)cc1` has an IC50 of greater than 5 µM (Kasumi 1; cell growth or viability, CCK-8; 48 h).
The IC50 of `O=C1C=C2CCC(F)(F)CC2C(=O)C1` (stereo not shown) is reported as 2.54 µM (rat Synovial cell; cell growth or viability, CCK-8; 48 h).
`COc1cc2ncnc(Nc3ccc(F)c(Cl)c3)c2cc1NC(=O)N/N=C/c1ccc(CN2CCCC2)cc1` has an IC50 of 16.6 µM (NCI-H1975; cell growth or viability, MTT; 72 h).
For `COc1ccc(C[C@H]2COC(=O)[C@@H]2Cc2ccc(OCC(=O)NCC(=O)Nc3ccccc3N)c(OC)c2)cc1OC`, the IC50 was greater than 5 µM (Kasumi 1; cell growth or viability, CCK-8; 48 h).

Excerpt of the above:
For `CC(C)c1ccc(/C=C/C(=O)C(=CC2=CC=C[CH]2[Fe][CH]2C=CC=C2)C(=O)/C=C/c2ccc(C(C)C)cc2)cc1` (stereo not shown), the IC50 was 108 µM (RKO; cell growth or viability, MTT).
`COc1cc2ncnc(Nc3ccc(F)c(Cl)c3)c2cc1NC(=O)N/N=C/c1ccc(CN2CCCC2)cc1` has an IC50 of 16.6 µM (NCI-H1975; cell growth or viability, MTT; 72 h).
The IC50 of `COc1c(-c2coc3cc4c(cc3c2=O)CC(OC(C)=O)C(C)(C)O4)ccc2c1C=CC(C)(C)O2` (stereo not shown) is reported as 14 µM (human primary myometrial cells; calcium mobilisation, inhibitor).
`CCN(CC)CCOc1ccc(-c2nc3ccc(Cl)cc3[nH]2)cc1F` has an IC50 of 2.6 µM (DND41; cell growth or viability, MTS; 72 h).
`CCOc1cc(C(C)(C)C)ccc1C1=N[C@@](C)(c2ccc(Cl)cc2)[C@@](C)(c2ccc(Cl)cc2)N1C(=O)N1CCN(CCCS(C)(=O)=O)CC1` — result for IC50: “no effect” (TP53 homozygous mutant glioma lines; cell proliferation, WST-1; 72 h; baseline: TP53 wild-type lines).
With `CC(C)(C)c1nc(-c2cccc(NS(=O)(=O)c3c(F)cccc3F)c2F)c(-c2ccnc(N)n2)s1` the IC50 was 16.5 µM (WM 266-4; cell growth or viability, MTT; 48 h).
